Published values gathered from unrelated publications.
Compare with care: the assays were run in different laboratories. ± marks the error that the study gave.

N=C(N)NCc1ccc(C(=O)NCCCC[C@H](NC(=O)CCCCCCC(=O)NCCCC[C@H](NC(=O)N[C@@H](CCC(=O)O)C(=O)O)C(=O)O)C(=O)O)cc1[211At] — tissue uptake (SCID mouse, PC-3 xenografts, brain; 21 h): 0.12 ± 0.03 %ID/g
C=Cc1cc(O)cc2nc(-c3ccc(O)c([76Br])c3)oc12 — tissue uptake (female C57BL/6 mouse, blood; 1 h, low dose): 0.4 ± 0.12 %ID/g
COC(=O)C[C@](O)(CCCC(C)(C)OC(C)=O)C(=O)O[C@@H]1C(OC)=C[C@]23CCCN2CCc2cc4c(cc2[C@H]13)OCO4 — tissue concentration (CD1 mouse, kidney; subcutaneous, 1 mg/kg, 0.5 h): 679 ng/mL
N=C(N)NCc1ccc(C(=O)NCCCC[C@H](NC(=O)N[C@@H](CCC(=O)O)C(=O)O)C(=O)O)cc1[131I] — tissue uptake (SCID mouse, PC-3 xenografts, blood; 21 h): 0.01 %ID/g
CC[C@H](C)[C@H](NC(=O)[C@@H](Cc1c[nH]c2ccccc12)NC(=O)[C@@H]1CCCN1C(=O)[C@H](CCCCN)NC(=O)[C@H](CCCCN)NC(=O)CCNC(=O)CCNC(=O)CN1CCN(CC(=O)O)CCN(CC(=O)O)CCN(CC(=O)O)CC1)C(=O)N[C@@H](C[Si](C)(C)C)C(=O)O [gallium-68 labelled] — tissue uptake (mouse, HT-29 xenograft, nude, prostate; 90 min, ex vivo biodistribution, unblocked): 2.25 ± 0.65 %ID/g
O=C(O)CC[C@H](NC(=O)O[C@@H](CCCCNC(=O)c1ccc([18F])cc1)C(=O)O)C(=O)O — tissue uptake (mouse, PC-3 PIP/flu xenografts, bladder; 180 min): 2.74 ± 0.48 %ID/g
COc1cc2ncnc(Oc3cccc(N[11C](=O)Nc4cc(C(C)(C)C(F)(F)F)on4)c3)c2cc1OC — tissue uptake (Balb/c nude mouse, female, A375 melanoma xenograft, tumor; 6.6 MBq, 30 min): 1.79 ± 0.07 %ID/g
N=C(N)NCc1ccc(C(=O)NCCCC[C@H](NC(=O)N[C@@H](CCC(=O)O)C(=O)O)C(=O)O)cc1[211At] — tissue uptake (SCID mouse, PC-3 xenografts, liver; 21 h): 0.33 ± 0.06 %ID/g
CN[C@](C)(C[18F])C(=O)O — tissue uptake (SCID mouse U87 xenograft, lung; 120 min, post injection): 1.5 ± 0.2 %ID/g

Some of these lines once more:
N=C(N)NCc1ccc(C(=O)NCCCC[C@H](NC(=O)N[C@@H](CCC(=O)O)C(=O)O)C(=O)O)cc1[211At] — tissue uptake (SCID mouse, PC-3 xenografts, liver; 21 h): 0.33 ± 0.06 %ID/g
